Results pooled from the literature.
Numbers after ± are the reported error.
CHRM5: Muscarinic acetylcholine receptor M5 (CHRM5, Homo sapiens, UniProt P08912)
UniProt P08912, sequence (whole entry, looked up): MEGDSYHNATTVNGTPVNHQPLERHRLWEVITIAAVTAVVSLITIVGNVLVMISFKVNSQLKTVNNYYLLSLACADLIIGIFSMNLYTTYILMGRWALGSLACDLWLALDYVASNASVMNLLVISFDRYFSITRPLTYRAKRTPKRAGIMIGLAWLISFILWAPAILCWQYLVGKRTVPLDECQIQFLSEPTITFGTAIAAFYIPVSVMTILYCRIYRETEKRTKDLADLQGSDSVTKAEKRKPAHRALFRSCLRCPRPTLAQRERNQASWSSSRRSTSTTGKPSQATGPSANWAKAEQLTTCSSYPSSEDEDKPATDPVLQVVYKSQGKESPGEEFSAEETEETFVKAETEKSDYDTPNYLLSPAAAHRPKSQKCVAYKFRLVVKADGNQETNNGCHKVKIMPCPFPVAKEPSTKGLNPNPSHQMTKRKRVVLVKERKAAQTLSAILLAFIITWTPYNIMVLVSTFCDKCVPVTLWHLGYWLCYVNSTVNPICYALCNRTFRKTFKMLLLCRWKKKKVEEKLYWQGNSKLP
CHRM3: Muscarinic acetylcholine receptor M3 (CHRM3, Homo sapiens, UniProt P20309)
UniProt P20309, sequence (whole entry, looked up): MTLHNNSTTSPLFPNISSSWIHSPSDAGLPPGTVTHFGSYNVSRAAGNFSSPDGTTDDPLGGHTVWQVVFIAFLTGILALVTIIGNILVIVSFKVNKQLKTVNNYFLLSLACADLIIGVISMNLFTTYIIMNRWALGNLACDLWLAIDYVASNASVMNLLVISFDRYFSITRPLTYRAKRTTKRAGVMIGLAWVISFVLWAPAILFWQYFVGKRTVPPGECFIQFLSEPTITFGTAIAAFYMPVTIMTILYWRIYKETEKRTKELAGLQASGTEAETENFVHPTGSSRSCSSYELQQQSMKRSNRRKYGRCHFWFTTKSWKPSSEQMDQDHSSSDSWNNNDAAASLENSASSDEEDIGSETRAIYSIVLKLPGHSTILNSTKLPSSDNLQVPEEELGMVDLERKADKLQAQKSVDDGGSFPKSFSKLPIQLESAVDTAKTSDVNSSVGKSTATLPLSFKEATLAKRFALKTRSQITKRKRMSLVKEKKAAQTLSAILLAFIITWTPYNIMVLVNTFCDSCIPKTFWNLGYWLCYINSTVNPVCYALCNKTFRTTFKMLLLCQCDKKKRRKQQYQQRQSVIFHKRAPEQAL
NTSR1: Neurotensin receptor type 1 (NTSR1, Homo sapiens, UniProt P30989)
UniProt P30989, sequence (whole entry, looked up): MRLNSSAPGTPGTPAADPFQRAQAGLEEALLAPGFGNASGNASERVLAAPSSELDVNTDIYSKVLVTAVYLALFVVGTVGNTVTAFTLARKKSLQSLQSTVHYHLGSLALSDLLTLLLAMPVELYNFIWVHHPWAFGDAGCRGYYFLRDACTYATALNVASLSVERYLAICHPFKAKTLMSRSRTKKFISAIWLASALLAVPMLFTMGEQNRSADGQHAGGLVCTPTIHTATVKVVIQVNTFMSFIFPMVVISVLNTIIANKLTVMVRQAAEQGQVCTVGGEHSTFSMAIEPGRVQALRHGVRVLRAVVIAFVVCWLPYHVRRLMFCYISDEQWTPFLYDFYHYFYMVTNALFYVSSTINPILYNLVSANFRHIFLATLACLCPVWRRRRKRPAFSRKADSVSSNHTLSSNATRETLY
UniProt O09047, sequence (whole entry, looked up): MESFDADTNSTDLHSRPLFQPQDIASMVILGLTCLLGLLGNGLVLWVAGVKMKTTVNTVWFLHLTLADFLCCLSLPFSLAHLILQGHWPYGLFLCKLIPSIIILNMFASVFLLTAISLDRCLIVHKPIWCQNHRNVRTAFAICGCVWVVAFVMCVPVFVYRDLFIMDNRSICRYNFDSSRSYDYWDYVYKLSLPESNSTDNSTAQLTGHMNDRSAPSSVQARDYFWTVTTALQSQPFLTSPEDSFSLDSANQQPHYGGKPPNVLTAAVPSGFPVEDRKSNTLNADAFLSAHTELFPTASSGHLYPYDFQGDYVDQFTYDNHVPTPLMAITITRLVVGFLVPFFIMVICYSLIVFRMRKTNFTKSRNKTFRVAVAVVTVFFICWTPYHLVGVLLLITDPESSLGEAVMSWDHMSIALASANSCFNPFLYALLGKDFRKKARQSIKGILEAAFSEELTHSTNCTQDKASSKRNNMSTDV
UniProt Q969F8, sequence (whole entry, unmodified, looked up): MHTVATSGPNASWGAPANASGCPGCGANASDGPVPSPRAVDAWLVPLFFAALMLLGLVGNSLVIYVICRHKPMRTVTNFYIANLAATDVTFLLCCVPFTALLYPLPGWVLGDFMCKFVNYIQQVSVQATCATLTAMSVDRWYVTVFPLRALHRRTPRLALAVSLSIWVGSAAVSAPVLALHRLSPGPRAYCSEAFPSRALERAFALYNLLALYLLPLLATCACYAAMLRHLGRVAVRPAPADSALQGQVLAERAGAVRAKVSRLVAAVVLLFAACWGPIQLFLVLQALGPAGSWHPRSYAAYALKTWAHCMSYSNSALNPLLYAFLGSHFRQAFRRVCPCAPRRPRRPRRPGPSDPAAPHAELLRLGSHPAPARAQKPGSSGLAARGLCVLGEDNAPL
UniProt P24530, sequence (whole entry, looked up): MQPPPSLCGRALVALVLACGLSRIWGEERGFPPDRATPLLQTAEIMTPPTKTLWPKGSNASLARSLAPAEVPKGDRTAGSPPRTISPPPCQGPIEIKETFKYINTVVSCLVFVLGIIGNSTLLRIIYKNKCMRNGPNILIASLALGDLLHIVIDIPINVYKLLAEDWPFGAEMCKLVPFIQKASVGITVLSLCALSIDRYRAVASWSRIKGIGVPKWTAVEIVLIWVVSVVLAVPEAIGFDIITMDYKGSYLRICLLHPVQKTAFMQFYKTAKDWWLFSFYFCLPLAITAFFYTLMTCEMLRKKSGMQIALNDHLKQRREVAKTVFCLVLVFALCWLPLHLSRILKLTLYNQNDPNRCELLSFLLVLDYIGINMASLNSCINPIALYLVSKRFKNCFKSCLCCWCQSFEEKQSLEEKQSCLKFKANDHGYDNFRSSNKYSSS
UniProt Q8TDU9, sequence (whole entry, unmodified, looked up): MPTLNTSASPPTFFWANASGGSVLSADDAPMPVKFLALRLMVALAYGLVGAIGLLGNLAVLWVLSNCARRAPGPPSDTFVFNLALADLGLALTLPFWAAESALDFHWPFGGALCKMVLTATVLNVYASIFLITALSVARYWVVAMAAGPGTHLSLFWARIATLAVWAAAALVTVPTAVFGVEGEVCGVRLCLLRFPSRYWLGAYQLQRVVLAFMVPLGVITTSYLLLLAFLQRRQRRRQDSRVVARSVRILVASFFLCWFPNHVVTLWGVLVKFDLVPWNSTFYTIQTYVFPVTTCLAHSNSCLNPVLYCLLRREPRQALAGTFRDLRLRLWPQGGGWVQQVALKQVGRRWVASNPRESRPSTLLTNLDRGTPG

For `Cc1ncsc1-c1ccc(C(C)NC(=O)C2CC(O)CN2C(=O)C(NC(=O)CCCCCCCCCCN2CCCC(Nc3ncc(Cl)c(Nc4ccccc4S(=O)(=O)C(C)C)n3)C2)C(C)(C)C)cc1` (stereo not drawn), “log2 fold change” read -1.36 (22Rv1; RNA-seq, refers to: RNF41 mRNA; concentration not given; relative to: DMSO).
`COC1CN([C@H]2CC[C@H]([C@@]3(C)Oc4c(Cl)cc(C(=O)NCc5c(SC)cc(C)[nH]c5=O)c(C)c4O3)CC2)C1`: “log2 fold change” 2.07 (RNA-seq, refers to: BAIAP2; human, whole blood; dose not given, 24 h; relative to: pretreatment baseline).
With `CNS(=O)(=O)Nc1nccc(Cc2c(C)c3ccc(Oc4ncccc4F)cc3oc2=O)c1F` the IC50 was 3.49 nM (COLO-679; cell viability; 7 days).
The Emax of `C=CCn1c(=O)c2ccccc2n2c(SC(C(=O)OCC)c3ccccc3)nnc12` (stereo not drawn) is reported as 133 ± 6% (CHRM5; receptor activation, agonist; concentration not given, 16 h).
With `CCCCCCOc1ccc(C(=O)OCCN2CC=CCC2)cc1` the Emax was 1.46 ± 0.07 fold (CHRM3; membranes; 10 µM, 15 h, added: carbachol; relative to: control).
The remaining binding of `Nc1ncc(-c2cc(-c3cnn(CC(F)(F)F)c3)ncc2F)nc1C(=O)NC1CNCC(F)C1` (stereo not drawn) is reported as 7.7% (MKNK2; KINOMEscan; 1 µM; relative to: control).
The Emax of `CCCCOc1ccc(C(=O)OCC[N+]2(C)CC=CCC2)cc1` (stereo not drawn) is reported as 1.39 ± 0.07 fold (CHRM5; membranes; 100 µM, 15 h, added: carbachol; relative to: control).
The Emax of `CCCC[C@H](NC(=O)[C@H](CC(C)C)NC(=O)[C@H](CO)NC(=O)[C@H](CO)NC(=O)[C@H](C)NC(=O)[C@H](CO)NC(=O)[C@H](C)N)C(=O)N[C@@H](CC(=O)O)C(=O)N[C@@H](CCCCN)C(=O)N[C@@H](CCC(=O)O)C(=O)N[C@@H](C)C(=O)N[C@H](C(=O)N[C@@H](Cc1ccc(O)cc1)C(=O)N[C@@H](Cc1ccccc1)C(=O)N[C@@H](C)C(=O)N[C@@H](Cc1c[nH]cn1)C(=O)N[C@@H](CC(C)C)C(=O)N[C@@H](CC(=O)O)C(=O)N[C@H](C(=O)N[C@H](C(=O)N[C@@H](Cc1c[nH]c2ccccc12)C(=O)O)[C@@H](C)CC)[C@@H](C)CC)C(C)C` is reported as 49 ± 6% (Endothelin receptor type B (EDNRB, Homo sapiens, UniProt P24530); agonist; HEK293; ETBR/ETAR ratio 1:2).
With `CCc1cc(O)cc2c(/C=N/NC(=N)NCCc3ccc(Cl)cc3)c[nH]c12` the Emax was 89.8 ± 9.02% (Relaxin-3 receptor 2 (RXFP4, Homo sapiens, UniProt Q8TDU9, L118A/V122A); HEK-293T; relative to: wild type).
`COc1cc2nc(C3(C)CC3)nc(N3CCC(c4ccccc4OC)CC3)c2cc1OC` gave an Emax of 94.1% (NTSR1; β-arrestin recruitment, agonist; HEK-293T).
`Cc1cc(C(c2ccc(Cl)cc2)c2ccc(Cl)cc2)sc1C(=O)N[C@@H](CCCN=C(N)N)C(=O)O` has an Emax of 55.6 ± 0.61% (C3a anaphylatoxin chemotactic receptor (C3ar1, Mus musculus, UniProt O09047); GoA dissociation, agonist, NanoBiT G-protein).
With `COc1ccccc1C1CCN(c2nc(C3(C(F)(F)F)CC3)nc3ccc(N(C)CCO)cc23)CC1` the Emax was 113% (NTSR1; β-arrestin recruitment, agonist; HEK-293T).
`C=C(NC(=O)c1csc(-c2nc3c(cc2O)-c2nc(cs2)C(=O)NC(C(C)O)C(=O)NC(=C(C)OC)c2nc(cs2)C(=O)NC2c4nc(cs4)C(=O)NC(COC(=O)c4c5c6c(cccc6n4O)COC(=O)C(OC4CC(C)(O)C(N(C)C)C(C)O4)C2OC5)c2nc-3cs2)n1)C(N)=O` (stereo not drawn) has an AUC(0-last) of 1830 ng·h/mL (Sprague-Dawley rat, male, plasma; intravenous infusion, 6 mg/kg single dose).
The Emax of `CCCCCCOc1ccc(C(=O)OCC[N+]2(C)CC=CCC2)cc1` (stereo not drawn) is reported as 1.29 ± 0.06 fold (CHRM3; membranes; 10 µM, 15 h, added: carbachol; relative to: control).
The Emax of `CNC(=N)NCCC[C@H](NC(=O)[C@H](CC(C)C)NC(=O)NNC(=O)[C@H](Cc1ccccc1)NC(=O)[C@@H](NC(=O)[C@H](CC(N)=O)NC(=O)[C@@H]1C[C@@H](O)CN1C(=O)[C@@H](Cc1ccc(O)cc1)NC(C)=O)[C@@H](C)O)C(=O)N[C@@H](Cc1c[nH]c2ccccc12)C(N)=O` is reported as 96.5% (KiSS-1 receptor (KISS1R, Homo sapiens, UniProt Q969F8, H152A); inositol phosphate, agonist; HEK293).

Some of these lines once more:
For `Cc1ncsc1-c1ccc(C(C)NC(=O)C2CC(O)CN2C(=O)C(NC(=O)CCCCCCCCCCN2CCCC(Nc3ncc(Cl)c(Nc4ccccc4S(=O)(=O)C(C)C)n3)C2)C(C)(C)C)cc1` (stereo not drawn), “log2 fold change” read -1.36 (22Rv1; RNA-seq, refers to: RNF41 mRNA; concentration not given; relative to: DMSO).
`COC1CN([C@H]2CC[C@H]([C@@]3(C)Oc4c(Cl)cc(C(=O)NCc5c(SC)cc(C)[nH]c5=O)c(C)c4O3)CC2)C1`: “log2 fold change” 2.07 (RNA-seq, refers to: BAIAP2; human, whole blood; dose not given, 24 h; relative to: pretreatment baseline).
